Published values collected from several papers.
Parts stem from different laboratories: compare values within a part only.

Set 1
Target: RNA binding protein fox-1 homolog 2, RRM domain, GST-SBP tag (RBFOX2, Homo sapiens, UniProt O43251-10, residues 100-194)
Technique: RNA Bind-n-Seq
Molecule type: RNA
Sample: in vitro
Tested at: 365 nM
Notes: natural RNA segment, single round, ends assumed
Relative to: no-protein control
Direction: higher = stronger binding
Measurement: RBNS enrichment (R)
Target sequence (chain): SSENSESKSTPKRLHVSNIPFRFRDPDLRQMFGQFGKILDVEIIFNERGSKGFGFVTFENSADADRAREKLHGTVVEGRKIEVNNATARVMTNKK
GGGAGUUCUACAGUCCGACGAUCAGCCAGGCUGGUCUUGAACUCCUGACCUUGGGUGAUCCACCUGCCUCAGCCUCCCAAAGUGCUGGGAUUACAGGCGUGAGCUAUCCCGCCCGGUCCCCUUUUCUUUAUUAUGGAAUUCUCGGGUGCCAA: 0.2
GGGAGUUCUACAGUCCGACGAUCACAAGGUCCUUGUGCAGGAGUCCCCAGAGACCUAGCUGCAGCUCAGGCCGACUGAAGCAGGCCUGGGGGUCUGUCGAGCAUUCCACAGCCUGCACAACACGGACUCAGCCUGGAAUUCUCGGGUGCCAA: 0.267
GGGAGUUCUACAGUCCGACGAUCCUCCCUCUCAGUGUCUCCCUCUUGGAUCUGUAGAUCUUCCCUUUGUGUCCUGGCCAGCCCCCAAAUGGCAUUCUAGUGCACAAAUCAUAGGAUGAGAGUUAUACUCCUGUUGGAAUUCUCGGGUGCCAA: 0.726
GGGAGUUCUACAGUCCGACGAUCGCAUCAGGAGUCCAAACCUCUGAGGUCUGAUCUCUGCUCUGUCAAGGACUUUCGGCAAGUCUCGUGACCUCUGGCUCUUUCACUUCCUCCCCACCUGCCAAAUGGGGAUAUGGAAUUCUCGGGUGCCAA: 0.227
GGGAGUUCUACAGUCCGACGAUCAUCCUGAGGAAGUCCGAGCUGUCCUGGAAAAGCUUUGCACUCCACCUAGACACGUGCCUCAGCUCUAGGGACCAGCAGGAAGGCUCCCCAAGCUUGGUACUUUCCCACACUGGAAUUCUCGGGUGCCAA: 0.322
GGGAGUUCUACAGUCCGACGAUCUAGAUGCUAGACCAACCAGCUUCCCAGGGUUCGUCGCUGUGAGGCGUAAGGGACAUGAAUUCUAGGGUCUCCUUUCUCCUUAUUUAUUCUUGUGGCUACAUCAUCCCUGGUGGAAUUCUCGGGUGCCAA: 0.525
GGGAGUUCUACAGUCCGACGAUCGGGCAACAGCUGCUGCUGCUUUUGAACAGAAUGGUAGACAGCAUUUACCCUCAGCCACUUCCUCUGGCUGUCACAGAACAGGAUGGUGGCCUGGGGGAUGCACACUUGUAUGGAAUUCUCGGGUGCCAA: 0.53
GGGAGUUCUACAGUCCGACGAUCCCACUGGACCACUGGGGGCACAAUGGAGACUUCUCUUCAGAAUGGUUUUUGUUCUGUCUACCCUCUCAGGGAUAUGAGAUUCUCCCAGGCUUGUUUCCUGUCAGCCAUCUUGGAAUUCUCGGGUGCCAA: 0.292
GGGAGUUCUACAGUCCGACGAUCUAAGGAAUUCUUGGGUAGGGCACAGGGAUGGGGUUGCCAGCUUCUUCUUUCUUGUGGUGGGGCUCAGACACCAGCAACAGCCUCUUGGGAUGCCCCAAGUUGUUUCCGGUUGGAAUUCUCGGGUGCCAA: 0.361

Set 2
Target: RING finger protein unkempt homolog, zinc fingers 1-6, SBP tag (UNK, Homo sapiens, UniProt Q9C0B0, residues 30-357)
Chain of UniProt Q9C0B0 (30-357, looked up): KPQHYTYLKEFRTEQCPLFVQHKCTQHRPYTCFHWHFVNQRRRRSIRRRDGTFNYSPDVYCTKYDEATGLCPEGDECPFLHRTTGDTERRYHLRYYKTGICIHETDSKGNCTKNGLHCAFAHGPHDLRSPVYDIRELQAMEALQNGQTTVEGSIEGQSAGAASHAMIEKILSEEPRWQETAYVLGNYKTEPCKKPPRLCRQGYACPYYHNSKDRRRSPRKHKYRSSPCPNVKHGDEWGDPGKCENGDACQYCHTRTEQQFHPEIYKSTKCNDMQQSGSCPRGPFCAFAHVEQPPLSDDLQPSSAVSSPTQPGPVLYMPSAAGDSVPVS
Technique: RNA Bind-n-Seq
Molecule type: RNA
Sample: in vitro
Tested at: 100 nM
Notes: RNA with constant flanks, vertebrate orthologous sites, ends assumed
Relative to: input RNA pool
Direction: higher = stronger binding
Measurement: bound/input enrichment
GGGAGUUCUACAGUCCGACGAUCACAGGAGCAGCAUAGGCUGUUUGAACUUUGGGGAAACGAGCUUUGCUUUUUAUAUUUAACUAGGAUACUUUUACGUGAUGGGUGCUUUGAGUGUGAAUGCAGCAGGCUCUUGUUUCCGAGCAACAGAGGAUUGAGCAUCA: 1.18 ratio
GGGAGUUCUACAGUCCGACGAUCUAUUUUCUUAUUUUAGGUAUCAUUGCCCAGUGCCCAAGAUCUUUUAUGUUCAGCUGACUGUAGGAAAUAAUGAAUUUUUUGGGGAAGGAAAGACUCGACAAGCUGCUAGACACAAUGCUGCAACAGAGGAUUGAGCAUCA: 1.62 ratio
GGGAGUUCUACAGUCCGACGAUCGCGGCUGGUGGGGGAAUAUCCCCUCCUCUGGCCUUGUCUCCCCUUCCUGCCACCAGCCCCUCAUUAUUUUUUUUUUAACCACCAUGUGAUUAAGGUCGGCGCUGCCUCCCCUGACCCGCUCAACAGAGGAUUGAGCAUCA: 1.41 ratio
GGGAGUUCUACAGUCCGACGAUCUCUCUCAUUUUAUAUCUCCGAAAAAGAUUCUGGAUUUUUAAAACACUUGUUAGUUUUAGUUAGCUCUGCCCUCAUGAAGUAUUACUAUAAUUCACCACAAACAGAUACCUGUCUGAAUUACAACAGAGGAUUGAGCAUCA: 0.575 ratio
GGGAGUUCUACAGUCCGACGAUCAGAAGAGCUGAGUAGAGUAAGGCCGUGUUUACUUAGAGCGUUUUUCCUUGCUUUAGUUUGCUAGCGUUUGGGUGGGUUGUGGCACACACCUUCUGAGGCAGGAGCUGUAGUGAGACCAUGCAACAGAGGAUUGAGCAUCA: 0.793 ratio
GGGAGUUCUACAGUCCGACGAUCUAUAAUUAUGAAAAUCUAAAGGAUUUUUACUGUUUAAUUUCCCCCAGCAUAUAUAUUAAGACCUCUUUUUUUUCCAGGCAGAUCAUUCAGAGUGUGCGAGUGUGUGUGCACAUGUUACAACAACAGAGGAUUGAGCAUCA: 0.822 ratio
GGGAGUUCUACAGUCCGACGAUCGAGGGUCUGCUGACCACUCACUGUUAUGUCCAGAUAUCUGUAAACCCUUUUUGUUCUUAGUCUUUUUCUUGUAUAAUGGAUGUUCUCUAAAAUUGUUAAUGUAUCACAGGGCUGAUGUUUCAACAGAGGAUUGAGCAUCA: 1.58 ratio
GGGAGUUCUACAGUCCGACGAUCAAUUGAGCAAAAACGUUUCCACUGGGUUUUGCGUGUAAGAAAAAAAUGUACCUGAGCACAUAGAGCUUUUUAAUAGCACUAACCAAUGCCUUUUUAGAUGUAUUUUUGAUGUAUAUAUCUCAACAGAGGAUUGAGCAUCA: 0.981 ratio
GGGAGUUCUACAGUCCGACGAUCAUUUAGAAUCUUAAUAAAUUGCUCCAAGGUUCCUGAAGUCAUUUCUGUAGGAUCGGACCAUAGGAUGGUGACGUCUUUUUUUUUAAUUUGUGUACUGUUUCCAAAGUUAUAUUUAAAGAGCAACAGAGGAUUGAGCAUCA: 2.29 ratio
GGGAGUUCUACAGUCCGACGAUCUUGGGAUCAGCUCGCCAAAUAGGAAUAGUAGUAAAAAAAAUAAGCAAAAUGAUAUUUGUAUAGAAAAAACAGAAGUUAAAUCAUGUAAAGUAAAUGUUGCCAAUAUUCCAGGCCCCAAAGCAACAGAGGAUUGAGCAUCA: 1.06 ratio
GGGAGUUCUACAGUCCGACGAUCCCACGAUAAACAACUCAGGGCAGUAUUCUCGAUAUCCUUACAGUAAUCUAAAUCAGGGAUUAGUUAACAAUACAGGGAUGAAUCAAAAUUUAGGCCUUACGAAUAACACUCCAAUGAAUCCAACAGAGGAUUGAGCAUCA: 1.19 ratio

Set 3
Target: Sal-like protein 4, full length isoform B (SALL4, Homo sapiens, UniProt Q9UJQ4-2, residues 1-616)
Technique: universal PBM
Molecule type: double-stranded DNA, one strand shown
Sample: in vitro
Tested at: not given
Notes: 8-mer, flanks averaged, mean of replicates
Direction: higher = stronger binding
Measurement: E-score
Target sequence (chain): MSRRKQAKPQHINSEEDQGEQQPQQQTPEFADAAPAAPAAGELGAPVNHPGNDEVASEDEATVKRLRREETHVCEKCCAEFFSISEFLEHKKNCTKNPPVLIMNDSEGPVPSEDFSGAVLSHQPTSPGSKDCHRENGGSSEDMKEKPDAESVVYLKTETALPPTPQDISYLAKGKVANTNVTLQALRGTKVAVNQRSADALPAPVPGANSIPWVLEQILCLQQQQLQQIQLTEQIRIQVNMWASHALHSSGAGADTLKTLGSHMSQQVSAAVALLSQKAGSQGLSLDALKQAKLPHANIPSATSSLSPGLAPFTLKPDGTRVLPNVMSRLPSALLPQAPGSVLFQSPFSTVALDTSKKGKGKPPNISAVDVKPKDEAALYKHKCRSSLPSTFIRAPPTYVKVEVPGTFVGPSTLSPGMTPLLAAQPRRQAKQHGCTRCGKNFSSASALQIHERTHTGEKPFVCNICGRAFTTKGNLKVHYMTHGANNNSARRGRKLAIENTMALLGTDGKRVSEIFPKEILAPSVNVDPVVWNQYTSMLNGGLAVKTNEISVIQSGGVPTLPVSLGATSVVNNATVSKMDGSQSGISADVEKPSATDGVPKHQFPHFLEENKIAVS
CATCCCCG: -0.226
ATAAAGTG: 0.259
GATGTAGC: -0.161
CCGGGACA: -0.266
CTCATAGA: 0.0936
TCACGGCA: -0.0185
ATACTTAC: 0.232
AGGGTCTA: -0.0632
ACGCGGCA: -0.333
TAGTAGCA: 0.0727
CTTCAAGA: 0.187
GCTCAAGA: -0.183
GTTTTTTA: 0.196
ATACTCGC: -0.0141
ATTAGACC: 0.02
TGCACACA: 0.15
GCCGAATA: -0.0205
CAACAGCA: -0.0206
ACGGTGCC: -0.253
AAGGGGGT: -0.14
CCTCTGTC: -0.201
GCGCAGCA: -0.326
CGGCGGAG: -0.319
CCGGGCTC: -0.381
CTACACCC: -0.254

Set 4
Target: Interferon regulatory factor 3, full length, phosphomimetic (IRF3, Homo sapiens, UniProt Q14653, residues 1-427, S386D/S396D/S398D/S402D/T404D/S405D)
Technique: protein-binding microarray
Molecule type: double-stranded DNA, one strand shown
Sample: in vitro
Tested at: 2540 nM top
Notes: 60-bp whole probe
With: salmon DNA 0.4 mg/ml
Relative to: random background probes
Direction: higher = stronger binding
Measurement: fitted relative affinity
Constant ends, left off below: GCCTAGCAC … GTCTTGATTCGCTTGACGCTGCTG
Residues (chain): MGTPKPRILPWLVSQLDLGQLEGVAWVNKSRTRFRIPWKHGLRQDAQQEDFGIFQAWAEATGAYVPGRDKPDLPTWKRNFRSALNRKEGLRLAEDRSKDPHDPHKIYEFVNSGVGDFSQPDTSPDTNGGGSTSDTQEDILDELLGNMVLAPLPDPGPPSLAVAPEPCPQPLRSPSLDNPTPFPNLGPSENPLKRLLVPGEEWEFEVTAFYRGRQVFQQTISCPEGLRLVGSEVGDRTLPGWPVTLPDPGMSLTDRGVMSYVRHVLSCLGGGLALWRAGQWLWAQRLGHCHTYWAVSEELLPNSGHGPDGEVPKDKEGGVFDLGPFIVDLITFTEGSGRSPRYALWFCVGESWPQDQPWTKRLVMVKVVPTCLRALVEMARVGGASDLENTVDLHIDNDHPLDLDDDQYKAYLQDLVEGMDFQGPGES
GTGTACATCTCTCTTAAATAGTGCTAG: 1.05 z-score
GACGGACTGGGTTTCGTGACGTGCTAG: 0.182 z-score
TTAGAACTGGGGTAACGATTAGTGCTA: -0.684 z-score
TACGGTTTCCTTATCCTGACGTGCTAG: 7.68 z-score
TCAAATATATATATTATACTGTGCTAG: 0.31 z-score
TTAGGTTTCGACACTGTGTTAGTGCTA: 2.57 z-score
TCACAGCTGTTTTTCTCACTGTGCTAG: 0.184 z-score
TTTTCCAGAGGCCCAGCCAGGTGCTAG: 1.17 z-score
GACGATGTCGGGACTGGAGACGTGCTA: -0.502 z-score
GACGGTTTCGACTATCGGGAGGTGCTA: 2.85 z-score
ATAGAACTGAGTCTCGATTAGTGCTAG: -0.187 z-score
CAAGTGATGTAGCTGGGAGCGTGCTAG: -0.498 z-score
TTAGGACTGCTTATCCCTTAGTGCTAG: -0.226 z-score
GACGGACTGGACTATCGTGACGTGCTA: -0.577 z-score
ATAGGACTGGGGACTGGGTTAGTGCTA: -1.05 z-score
TTAGATCTCAGACTGGATTCGTGCTAG: -0.00729 z-score
TTAGATTCCACTTTCGATTAGTGCTAG: 4.22 z-score
CACGGTTCCGGTTTCGGGACGTGCTAG: 5.75 z-score
GATGGACTGCTTATCCTGACGTGCTAG: -0.277 z-score
GACGAACTGAGACTGGAGAAGTGCTAG: -0.296 z-score
GACGATTTCAGGCTCGAGACGTGCTAG: 0.849 z-score
CTAGGACTGGGGTATCGGTTAGTGCTA: 0.101 z-score
TCAGCTATACCACTCTTACTGTGCTAG: 0.191 z-score
CTCTACATGTGTTTAAAAAGGTGCTAG: 0.0972 z-score
TCAGCTTACAATATAAAACTGTGCTAG: 0.528 z-score

Some of these lines once more (set 3):
CATCCCCG: -0.226
CTTCAAGA: 0.187
CCTCTGTC: -0.201
TAGTAGCA: 0.0727
AGGGTCTA: -0.0632
